# Assay results gathered from unrelated publications.
# A part holds a random share of what one study measured.
# Chain of UniProt Q9P0L2 (whole entry, looked up): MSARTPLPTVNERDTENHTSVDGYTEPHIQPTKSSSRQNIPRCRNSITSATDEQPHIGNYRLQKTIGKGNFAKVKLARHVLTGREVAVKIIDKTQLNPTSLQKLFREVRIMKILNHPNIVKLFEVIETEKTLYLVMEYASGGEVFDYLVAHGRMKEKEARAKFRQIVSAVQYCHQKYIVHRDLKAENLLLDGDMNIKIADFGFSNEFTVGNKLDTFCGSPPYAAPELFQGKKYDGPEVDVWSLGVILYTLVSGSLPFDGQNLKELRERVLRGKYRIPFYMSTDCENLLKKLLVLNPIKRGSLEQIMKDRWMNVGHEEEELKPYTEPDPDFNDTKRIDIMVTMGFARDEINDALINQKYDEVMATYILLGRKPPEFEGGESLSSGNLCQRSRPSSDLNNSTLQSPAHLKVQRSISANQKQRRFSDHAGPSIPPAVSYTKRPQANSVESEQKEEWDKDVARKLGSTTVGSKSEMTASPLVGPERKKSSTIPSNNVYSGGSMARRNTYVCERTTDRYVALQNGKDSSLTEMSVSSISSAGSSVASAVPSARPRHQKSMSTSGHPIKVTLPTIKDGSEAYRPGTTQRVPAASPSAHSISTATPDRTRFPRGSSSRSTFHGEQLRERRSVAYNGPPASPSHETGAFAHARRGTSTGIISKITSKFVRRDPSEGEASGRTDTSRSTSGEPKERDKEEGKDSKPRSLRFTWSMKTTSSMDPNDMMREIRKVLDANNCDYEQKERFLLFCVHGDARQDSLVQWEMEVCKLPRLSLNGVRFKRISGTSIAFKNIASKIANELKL
# Chain of UniProt P11309 (whole entry, looked up): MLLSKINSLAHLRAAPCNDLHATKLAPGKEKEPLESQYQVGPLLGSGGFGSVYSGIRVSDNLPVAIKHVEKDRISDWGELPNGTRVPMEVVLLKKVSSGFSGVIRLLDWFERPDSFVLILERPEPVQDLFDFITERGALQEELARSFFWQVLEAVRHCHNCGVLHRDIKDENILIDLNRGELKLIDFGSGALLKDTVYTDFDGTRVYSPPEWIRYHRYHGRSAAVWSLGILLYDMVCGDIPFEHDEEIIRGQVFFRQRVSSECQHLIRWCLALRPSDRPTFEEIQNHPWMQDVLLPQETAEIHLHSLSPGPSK
# Chain of UniProt O60674 (whole entry, looked up): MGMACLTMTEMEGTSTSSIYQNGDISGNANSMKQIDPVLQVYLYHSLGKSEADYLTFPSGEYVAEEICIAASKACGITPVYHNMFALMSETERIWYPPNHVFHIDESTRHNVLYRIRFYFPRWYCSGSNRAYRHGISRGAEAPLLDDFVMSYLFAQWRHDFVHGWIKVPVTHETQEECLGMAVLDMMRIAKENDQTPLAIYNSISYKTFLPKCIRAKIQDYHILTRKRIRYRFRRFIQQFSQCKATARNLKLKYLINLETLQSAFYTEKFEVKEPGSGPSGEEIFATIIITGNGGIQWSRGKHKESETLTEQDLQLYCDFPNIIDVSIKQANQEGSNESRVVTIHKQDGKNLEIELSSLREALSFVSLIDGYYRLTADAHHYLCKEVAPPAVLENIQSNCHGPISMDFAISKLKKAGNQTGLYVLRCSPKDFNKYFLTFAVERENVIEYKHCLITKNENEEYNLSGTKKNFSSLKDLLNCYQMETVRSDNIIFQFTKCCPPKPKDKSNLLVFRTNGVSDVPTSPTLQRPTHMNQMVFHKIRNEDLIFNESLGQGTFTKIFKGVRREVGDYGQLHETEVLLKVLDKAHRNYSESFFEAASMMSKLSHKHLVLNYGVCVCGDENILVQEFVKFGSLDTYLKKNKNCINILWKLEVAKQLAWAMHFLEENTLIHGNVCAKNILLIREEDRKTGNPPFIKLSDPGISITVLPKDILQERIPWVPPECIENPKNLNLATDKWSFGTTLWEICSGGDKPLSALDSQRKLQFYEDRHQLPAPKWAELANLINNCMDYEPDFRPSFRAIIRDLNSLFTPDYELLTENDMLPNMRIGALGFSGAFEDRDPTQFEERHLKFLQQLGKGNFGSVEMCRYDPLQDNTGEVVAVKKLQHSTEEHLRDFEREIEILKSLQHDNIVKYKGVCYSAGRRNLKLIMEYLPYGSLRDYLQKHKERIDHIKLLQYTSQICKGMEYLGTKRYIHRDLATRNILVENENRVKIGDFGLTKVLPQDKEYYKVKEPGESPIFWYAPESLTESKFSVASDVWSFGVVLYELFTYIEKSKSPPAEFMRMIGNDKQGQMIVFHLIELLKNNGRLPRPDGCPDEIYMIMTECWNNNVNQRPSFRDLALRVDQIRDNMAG
# Chain of UniProt P07332 (whole entry, looked up): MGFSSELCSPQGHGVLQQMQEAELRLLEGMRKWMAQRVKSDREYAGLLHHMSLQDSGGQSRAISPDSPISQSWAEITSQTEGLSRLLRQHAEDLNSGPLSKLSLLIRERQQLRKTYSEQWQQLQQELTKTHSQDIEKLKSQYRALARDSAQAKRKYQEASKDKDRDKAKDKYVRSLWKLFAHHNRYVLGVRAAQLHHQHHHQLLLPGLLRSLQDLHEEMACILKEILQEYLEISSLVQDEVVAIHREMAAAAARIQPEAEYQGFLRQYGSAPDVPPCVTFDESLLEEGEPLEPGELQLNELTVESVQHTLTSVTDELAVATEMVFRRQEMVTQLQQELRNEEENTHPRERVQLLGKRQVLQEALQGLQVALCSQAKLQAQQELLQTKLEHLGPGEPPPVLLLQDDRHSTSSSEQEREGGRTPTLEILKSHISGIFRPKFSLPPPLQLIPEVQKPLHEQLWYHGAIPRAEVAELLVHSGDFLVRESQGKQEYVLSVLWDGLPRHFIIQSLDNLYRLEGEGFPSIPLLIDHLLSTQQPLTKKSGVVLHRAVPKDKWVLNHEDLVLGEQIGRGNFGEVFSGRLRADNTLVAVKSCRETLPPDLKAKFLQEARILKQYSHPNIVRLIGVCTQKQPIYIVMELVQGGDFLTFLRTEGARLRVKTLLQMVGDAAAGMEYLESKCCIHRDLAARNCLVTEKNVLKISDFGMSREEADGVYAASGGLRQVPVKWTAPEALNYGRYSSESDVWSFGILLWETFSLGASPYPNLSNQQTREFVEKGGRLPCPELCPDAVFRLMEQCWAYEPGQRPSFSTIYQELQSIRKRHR
# Chain of UniProt P07947 (whole entry, looked up): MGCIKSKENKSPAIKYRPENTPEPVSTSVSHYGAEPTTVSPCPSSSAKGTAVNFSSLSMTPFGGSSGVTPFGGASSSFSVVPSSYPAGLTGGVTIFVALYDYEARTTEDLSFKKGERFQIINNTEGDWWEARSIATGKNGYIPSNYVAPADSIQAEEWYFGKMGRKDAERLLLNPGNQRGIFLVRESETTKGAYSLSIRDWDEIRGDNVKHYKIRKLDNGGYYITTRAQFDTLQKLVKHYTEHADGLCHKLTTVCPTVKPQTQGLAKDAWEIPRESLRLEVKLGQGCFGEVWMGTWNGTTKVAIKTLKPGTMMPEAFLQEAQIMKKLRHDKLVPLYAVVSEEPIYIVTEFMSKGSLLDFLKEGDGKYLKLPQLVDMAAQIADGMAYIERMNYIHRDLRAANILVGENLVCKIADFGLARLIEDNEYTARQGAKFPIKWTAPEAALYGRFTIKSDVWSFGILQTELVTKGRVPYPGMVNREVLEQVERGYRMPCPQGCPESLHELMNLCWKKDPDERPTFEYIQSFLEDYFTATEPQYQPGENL

# Set 1
# Host: mouse
# Matrix: microsomes or S9
# Concentration: 2 µM
# Time: 0.5 h
SMILES,remaining compound [%]
CN(Cc1n[nH]c2c1CCCCC2)C(=O)CCC1(Cc2ccc(-c3ccccc3)cc2)CCC(=O)N1 (stereo not shown),0.317
Cc1cc(=O)n2nc(CN(C(=O)CC(C)C)c3ccc(F)cc3)nc2[nH]1,88.2
Cc1nc2ccccc2n1Cc1cc(NCc2ccccc2OC(C)C)nc(N)n1,1.85
Cc1ccc(Nc2nc(Cl)nc(NC(C)C)n2)cc1,0.0493
Cc1ccc(NC(=O)CN(C)S(=O)(=O)c2ccc(Br)s2)c(Cl)c1,< 1
CC(C(=O)Nc1nnn[nH]1)c1ccc(-c2ccccc2)c(F)c1 (stereo not shown),88.2
Cc1cc(C23CC4CC(CC(C4)C2)C3)cc2sc(N)nc12,47.9
Cc1ccccc1-c1nc2ccccc2cc1Cn1c2ccc(C(N)=O)cc2c2cnc(N)nc21,39.9

# Set 2
# Structure (SMILES): NC(=O)c1ccc(N(C(N)=O)c2c(F)cccc2F)nc1-c1ccc(F)cc1F
# Read-out: enzyme activity
# Action: inhibitor
# Concentration: 0.5 µM
# Baseline: control
target,remaining activity
"Dual specificity tyrosine-phosphorylation-regulated kinase 1A (DYRK1A, Homo sapiens, UniProt Q13627)",98.7%
"Serine/threonine-protein kinase pim-1 (PIM1, Homo sapiens, UniProt P11309)",98.8%
"Maternal embryonic leucine zipper kinase (MELK, Homo sapiens, UniProt Q14680)",87.1%
"Serine/threonine-protein kinase MARK1 (MARK1, Homo sapiens, UniProt Q9P0L2)",132%
"Tyrosine-protein kinase JAK2 (JAK2, Homo sapiens, UniProt O60674)",107%
"Tyrosine-protein kinase Fes/Fps (FES, Homo sapiens, UniProt P07332)",99%
"Receptor tyrosine-protein kinase erbB-2 (ERBB2, Homo sapiens, UniProt P04626)",106%
"Tyrosine-protein kinase Yes (YES1, Homo sapiens, UniProt P07947)",97.8%

# Set 3
# Compound: CC(C)n1cnc(-c2ccc(F)cc2)c1-c1ncc(C(=O)Nc2ccc(N3CCN(C)CC3)cc2)[nH]1
# Method: phase 2a trial
# Host: idiopathic pulmonary fibrosis patients
dose,notes,patients with aortic valve incompetence [%]
30 mg once daily,adverse event grade 5,0
30 mg once daily,adverse event grade 4,0
60 mg once daily,adverse event grade 4,0
60 mg once daily,adverse event grade 5,0
dose not given,"adverse event grade 3, all dose arms pooled",0
30 mg once daily,adverse event grade 1,1
60 mg once daily,adverse event grade 2,0
60 mg once daily,adverse event grade 3,0

# Single results of other studies
Compound,target,read-out,method,concentration,endpoint,result
Cn1cncc1[C@@](O)(COc1ccc(C#N)cc1-c1ccc(OC(F)(F)F)cc1)c1ccc(C#N)cc1,"5'-AMP-activated protein kinase catalytic subunit alpha-1 (PRKAA1, Homo sapiens, UniProt Q13131)",cell-free assay,competition with immobilised ligand,1 µM,remaining binding,100%
